Measurements pooled from the literature.
Numbered parts are unrelated; each lists some results of a single study.

Block 1 — technique: RNA Bind-n-Seq; molecule type: RNA; medium: in vitro; tested at: 200 nM; setting: whole 134-nt RNA, ends assumed; with: 150 mM LiCl; relative to: input library; direction: higher = stronger binding; each molecule: 7-deaza-guanosine replaces G
Target: Fragile X messenger ribonucleoprotein 1, C-terminal low-complexity region (Fmr1, Mus musculus, UniProt P35922)
Shared flanks, not repeated: GGGAGUUCUACAGUCCGACGAUC … UGGAAUUCUCGGGUGUCAAGG
Oligonucleotide	log2 enrichment
UGGGAGGUGGAUUUUGUUUAUUUUUUUAGCUCAUUUCCAGGGGUGGGAAUUUUUUUUUAAUAUGGGUCAUGAAUAAAGUUGUUUUUGAAA	0.622
CCUCAAGUCCUGUGCUACACAUCGUAUGUACCGAAUCGGAAGGGAAGGGAAGGAAAGUAUUAUGUUACGCCGUUCGGAUCUGCACUUCCA	-1.57
GCAGGAAGUAAAAACAAAUGGAAAUGCUUCGGAUAGUGGCAGGGGUGGGGGUUGCUAAGGAAAGGGAGGGAUGGGAGUGGGUAAAGAGUU	1.42
AAGUCCUGUGCUACACAUCGUAUGUACCGAAUCGGGUUUUGGGUUUUGGGGUUUUGGAAAGUAUUAUGUUACGCCGUUCGGAUCUGCACU	-0.936
UAACUUUAGAGGAGGAUCUGAUGGAUAUGGCAGUGGACGUGGAUUUGGGGAUGGCUUUAAUGGGUAUGGAGGAGGACCUGGAGGUGGCAA	0.146
CUCAAGUCCUGUGCUACACAUCGUAUGUACCGAAUCGGAAAAAGGAGGUUUGGAAAGUAUUAUGUUACGCCGUUCGGAUCUGCACUUCCA	-0.718
GUCCUGUGCUACACAUCGUAUGUACCGAAUCGGGGAAAGGGGAAAGGGGAAAAAGGGGAAAGUAUUAUGUUACGCCGUUCGGAUCUGCAC	1.23
CUCAAGUCCUGUGCUACACAUCGUAUGUACCGAAUCGGUUUGGUUUGGGUUUGGAAAGUAUUAUGUUACGCCGUUCGGAUCUGCACUUCC	-0.327
CCUGUGCUACACAUCGUAUGUACCGAAUCGGGGAAAGGGGAAAAAGGGGAAAAAAAGGGGAAAGUAUUAUGUUACGCCGUUCGGAUCUGC	1.08
CUCAAGUCCUGUGCUACACAUCGUAUGUACCGAAUCGGUUUGGAAAAAGGAGGAAAGUAUUAUGUUACGCCGUUCGGAUCUGCACUUCCA	-0.237
CAAGUCCUGUGCUACACAUCGUAUGUACCGAAUCGGGAAAAGGAAAAGGAAAAGGAAAGUAUUAUGUUACGCCGUUCGGAUCUGCACUUC	-0.988

Block 2 — technique: universal PBM; molecule type: double-stranded DNA, one strand shown; medium: in vitro; tested at: not given; direction: higher = stronger binding
Target: Sal-like protein 4, full length isoform B (SALL4, Homo sapiens, UniProt Q9UJQ4-2, residues 1-616)
Setting: 8-mer, flanks averaged, mean of replicates
Residues (chain): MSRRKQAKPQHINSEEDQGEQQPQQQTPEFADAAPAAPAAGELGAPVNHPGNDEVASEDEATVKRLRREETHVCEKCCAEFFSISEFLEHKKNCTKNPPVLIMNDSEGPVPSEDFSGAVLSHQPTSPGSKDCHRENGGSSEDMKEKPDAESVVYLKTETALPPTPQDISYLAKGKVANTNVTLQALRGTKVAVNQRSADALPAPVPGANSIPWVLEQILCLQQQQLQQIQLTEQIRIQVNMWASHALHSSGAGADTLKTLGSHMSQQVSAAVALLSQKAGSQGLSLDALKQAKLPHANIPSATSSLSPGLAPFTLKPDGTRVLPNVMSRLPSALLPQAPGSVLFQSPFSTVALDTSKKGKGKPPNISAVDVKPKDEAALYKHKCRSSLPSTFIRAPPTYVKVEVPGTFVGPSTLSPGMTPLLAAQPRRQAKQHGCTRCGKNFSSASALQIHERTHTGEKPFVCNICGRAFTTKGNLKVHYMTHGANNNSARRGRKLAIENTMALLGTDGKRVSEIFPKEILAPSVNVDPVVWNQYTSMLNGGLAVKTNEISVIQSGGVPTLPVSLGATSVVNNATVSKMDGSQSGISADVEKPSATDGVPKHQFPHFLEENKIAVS
Oligonucleotide	E-score
AACTCGGC	-0.171
GATTCCAA	-0.103
ACAGCTGG	-0.223
CGGGCTGA	-0.348
ACCGTGTG	-0.181
GGAAAGCA	-0.00712
TAGTCTGA	-0.066
CATAGAGC	-0.142
AAGTACCA	0.12
GTTCCAGA	-0.0762
CGGAGTGC	-0.272
ATTCACAA	0.214
ATAGTGAG	0.191
GGACCGAA	-0.0134
AGGCGCGG	-0.393
AGTCGGCG	-0.187
TCTGCTAA	-0.038
GTCCACTA	-0.0126
CCAATGTC	0.00216
ATTCCATA	0.281
AACTCCTC	0.0509
TCCAGGAA	-0.0521
CCACTTCA	-0.0143
CATGTAAA	0.204
GGAATAAA	0.291

Block 3 — technique: RNA Bind-n-Seq; molecule type: RNA; medium: in vitro; tested at: 365 nM; relative to: no-protein control; direction: higher = stronger binding
Target: RNA binding protein fox-1 homolog 2, RRM domain, GST-SBP tag (RBFOX2, Homo sapiens, UniProt O43251-10, residues 100-194)
Setting: natural RNA segment, single round, ends assumed
Shared flanks, not repeated: GGGAGUUCUACAGUCCGACGAUC … UGGAAUUCUCGGGUGCCAA
Construct (chain): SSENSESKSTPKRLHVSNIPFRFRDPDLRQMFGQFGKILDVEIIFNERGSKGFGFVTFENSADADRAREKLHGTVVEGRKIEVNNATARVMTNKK
Oligonucleotide	RBNS enrichment (R)
UUCCUGGGCCAGCACUAGCCUUGAAUUUGCUCAUCCGCUUGAAACCUACUGGGGGAUGGGGCCCGUGCCUUUCUGACCUACCCUGUCCUAUAUGGUCCUCGUGUUGGCUU	0.488
AAUUAACUACAUUAGAAACUGACAUCCUUAUACUGGUCUCCCAAGUACAAAAGUAGGAAGAAGCCGUUAGGAGCUGGCUAGAGAGACUCUCGAGUGUGCUGGUGUGCUGU	0.817
AUACUUGUUUGAUAUUUUUUCACCUUUUGAGCCCUUUUCCCAAAGAAUUCAAUAUCAGUUUAGUAGCAACAGUACAGUUGCCAUUUAAAUUGGUUUAGUUGCUGUAUAUC	0.796
UCCAAAGAUAUAGCAGCUCAUAAAUUUAUCAAAAGUUCUGUCCACCCUCACCUCCUGCCAAGGGGAGAGAUCUAUUUCUACUACACGCUGUCUCUCCCAGUACAUCCCCG	0.688
GAUACGCUCAUAUGCACUUAGGAGUGAGCUUUGUUGUACAGUCUGUCCACGGGGUCGAUGCUGUUAUUAGGUGAAAAUAGUGUGAUCUUUAAGACUUUAAAUACAGAUUU	0.956
AUGUAAAUGCUCCAUGUUCCUGUACACUGUCUCCUUUUGGAGCAUCUCUGAAUGGAGCAUGGCUGUUUUCAUCUCACUGCUGUAUUCCAGAUGCUGCCCACAAAUGCUCC	0.205
GACAUGAGUUCCUAAAGGGCACUGAAAAGGGCACCUCCUUCCUGUGUCUGCCUCCACUGCACCCCCAGUCCCUAAAGCAGGGAUCGUGUGUGGUGAGGAACGCUCUCUUC	0.393
UCCUCAUCCCAACCAGAGGUGGCACACUUGGAUUGAGGGUUGACACAUCUCAUCUCACCCAUCGGCUACCUGCUGUAAUAUAAGACAACAGCUUUUAAACGUGUAUAUAA	0.677
GAGGAAGAGGGUAAAAGGGCACAGACUUCCCCAGCUCUGCCCUAAAUAAAAUAACAAUGCUGAUUCAUGACUCAUUGUUUCAUGUACCAAGGGGAGUAGGGCAGGUCAUG	0.846
ACAUCACUACUUCUUAUGUAACUUCUUCCAGCCAGUGCUUUUAUUGUUCGUUUUAGUUUACUGGGGACACACAGGAGUCUUUCUGUAAUGACUUAUGUGGUAAAAUGUUU	0.364
AGCCACCCCUCAUAAGAGCCCUGUUCUCUGAAGACCAUUCAUAUGAGAACAAAGGUCUAGGAUACUGCAUUAGUUACCAGAAAACUAGGGGAAUUUAGAGGGAAAAAAAA	0.386
AAAAUGUCCAUCCUGGUCACAGCACACAAGAUGGCUAUUGGUCUGCUUUUACCCUACCCUGUACUAUACAUGAAAAUUCCAGUUAUUAACACACUCAAACUGGUGGAGCU	0.538

Block 4 — technique: EMSA with sequencing; molecule type: double-stranded DNA, one strand shown; medium: in vitro; tested at: 10 and 20 nM; relative to: negative control set to 0; direction: higher = stronger binding
Target: Hepatocyte nuclear factor 3-alpha (Foxa1, Mus musculus, UniProt P35582, residues 1-468, full length assumed)
Chain of UniProt P35582 (whole entry, looked up): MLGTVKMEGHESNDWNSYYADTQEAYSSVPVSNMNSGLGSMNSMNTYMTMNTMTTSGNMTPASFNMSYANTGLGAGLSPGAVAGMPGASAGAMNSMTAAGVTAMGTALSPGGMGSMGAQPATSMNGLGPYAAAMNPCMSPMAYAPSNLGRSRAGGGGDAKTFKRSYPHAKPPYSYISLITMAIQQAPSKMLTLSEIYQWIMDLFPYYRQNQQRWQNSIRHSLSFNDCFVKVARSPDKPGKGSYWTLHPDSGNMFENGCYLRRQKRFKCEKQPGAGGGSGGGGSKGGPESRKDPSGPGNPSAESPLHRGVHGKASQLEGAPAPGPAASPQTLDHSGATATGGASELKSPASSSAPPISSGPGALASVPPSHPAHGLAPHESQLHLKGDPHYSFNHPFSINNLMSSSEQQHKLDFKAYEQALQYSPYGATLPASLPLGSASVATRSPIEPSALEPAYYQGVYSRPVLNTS
Setting: whole designed probe, mean of two concentrations, ends assumed
Shared flanks, not repeated: GTGAGCGGTGCCCATTGATGGGGAAC … TTTCACTGGGATCGTGGGGAC
Oligonucleotide	normalised bound fraction [ratio]
ACATTCACTCACCATTCACTTACTGACTCACCTAGAGCAACTTTCAGTCCTGCAAGCTCCATTCATGGTAAATGCCCTGTACAGGTGTACCATAGATTACTTTTTATACCTTTTTTTTTTTTTTTTTTTGAGATGGAGTCTTGCTCTTGTCACCCAGTCTGGAGTGCAATGGTACAATCTTGGCTCACTGCAA	-0.0339
ACAGCCTGGTAATACCTCAGGTTCCCAAGAACTCCAGGGCCTGTAAACATGCCAGTCACACGTGGGCCTGCTTAGAAGGCCGATGGCCTTTGAGTAATTTATCTACACCTTGCATAAATCTCTGCACTTTGAGTGGCAAAGAGGCCATTCCCTGAGGGTGACTTGGAAAACCAGAGGTGCAGTGACTCAGCCT	-0.0502
TGCACCTATATAAAATATAGGTTTATTGTTCTTTGTGTCAATGGCATGTATTATTTTGGCTATTCTAGAAAAGAAATTACGTTGGAATTCCAATGTAATCTTGTTTGTGTGAATCAGTAACCTTCTCTTTCTTTTGTATGTCATAAGAAAGCAACAAATGAGTTGTTAAATGCTAAAATTAAACACCATTTTA	0.0422
GTAGGCCTCTGCTGCACCTGTCAACTCCACCTGGCGGCACAGAAGCTGCCAACGGTACGTCAGTGAGTTACCTTGGCCGTGTTCCAGTGAAACTGTTTACACAGGCAGGTGGAAGTGACTGTGGTGATGGTTGCGTAACTCTGTGAACACACTGGAAACCATTGAATGTGTGTACTTGATCTGAATTGCGTGG	0.408
GGCGGAAGTGGAAAGAAATTGAGGGATCTGAATTTGTTGTTTACTAGGAGGTGTGGGTCCAACTTCCAACCTTGTCCCCAGACCTTTTCCAGGTGTTTGCTTAGGAAGCACTGCGATGATGTGGCTTACTATAGTTATTGCAGACAGAAGGAAAATCTACCAAAGCCCCCATGACAATACCAATGAGCAATGA	0.23
ATCTTCCCCCTCTTCCTTGCCCCACCAGCTCACCTTCCCGGGTATCTGCAAATAAGGAAATTAATATAAGCCGGCATTCGTTAACCCTCTTCTGGCGCAAACTGCACATTGGTCTGGATGAATCATGGTCCTTTGGCGACGCCAGGCTCCGGGAGAGCAAAGCACCGTGTCAGGGCCATGATCCGGGGTGGCC	0.0723
ATCTTCCCCCTCTTCCTTGCCCCACCAGCTCACCTTCCCGGGTTGTTTACTTTGAGCAAAGTAAACAAAGCCGGCATTCGTTAACCCTCTTCACGCGCATACTGCTGTTTACTTTGGATCTAACATGGTCCTTTGGCGACGCCAGGCTCCGGGAGAGCAAAGCACCGTGTCAGGGCCATGATCCGGGGTGGCC	0.544
ATCTTCCCCCTCTTCCTTGCCCCACCAGCTCACCTTCCCGGGTTATTTGCACAAAGGAAAATAAATAAAGCCGGCATTCGTTAACGCAGTTCTGGCGCAAACTGCTGTTTGCTCTGGATGAATCATGGTCCTTTGGCGAGGCGTGGCTCCGGGAGAGCAAAGCACCGTGTCAGGGCCATGATCCGGGCTCGCC	0.374

For quick reference, copied from above (block 3):
Oligonucleotide	RBNS enrichment (R)
UCCAAAGAUAUAGCAGCUCAUAAAUUUAUCAAAAGUUCUGUCCACCCUCACCUCCUGCCAAGGGGAGAGAUCUAUUUCUACUACACGCUGUCUCUCCCAGUACAUCCCCG	0.688
GAUACGCUCAUAUGCACUUAGGAGUGAGCUUUGUUGUACAGUCUGUCCACGGGGUCGAUGCUGUUAUUAGGUGAAAAUAGUGUGAUCUUUAAGACUUUAAAUACAGAUUU	0.956
AUGUAAAUGCUCCAUGUUCCUGUACACUGUCUCCUUUUGGAGCAUCUCUGAAUGGAGCAUGGCUGUUUUCAUCUCACUGCUGUAUUCCAGAUGCUGCCCACAAAUGCUCC	0.205
GACAUGAGUUCCUAAAGGGCACUGAAAAGGGCACCUCCUUCCUGUGUCUGCCUCCACUGCACCCCCAGUCCCUAAAGCAGGGAUCGUGUGUGGUGAGGAACGCUCUCUUC	0.393
UCCUCAUCCCAACCAGAGGUGGCACACUUGGAUUGAGGGUUGACACAUCUCAUCUCACCCAUCGGCUACCUGCUGUAAUAUAAGACAACAGCUUUUAAACGUGUAUAUAA	0.677
GAGGAAGAGGGUAAAAGGGCACAGACUUCCCCAGCUCUGCCCUAAAUAAAAUAACAAUGCUGAUUCAUGACUCAUUGUUUCAUGUACCAAGGGGAGUAGGGCAGGUCAUG	0.846
